# Published values collected from several papers.
# Lines come from different studies, so protocols differ. “And” joins repeats or separate records; there may be more than shown. ± marks the error that the study gave.
# UniProt Q6W5P4, sequence (whole entry, unmodified, looked up): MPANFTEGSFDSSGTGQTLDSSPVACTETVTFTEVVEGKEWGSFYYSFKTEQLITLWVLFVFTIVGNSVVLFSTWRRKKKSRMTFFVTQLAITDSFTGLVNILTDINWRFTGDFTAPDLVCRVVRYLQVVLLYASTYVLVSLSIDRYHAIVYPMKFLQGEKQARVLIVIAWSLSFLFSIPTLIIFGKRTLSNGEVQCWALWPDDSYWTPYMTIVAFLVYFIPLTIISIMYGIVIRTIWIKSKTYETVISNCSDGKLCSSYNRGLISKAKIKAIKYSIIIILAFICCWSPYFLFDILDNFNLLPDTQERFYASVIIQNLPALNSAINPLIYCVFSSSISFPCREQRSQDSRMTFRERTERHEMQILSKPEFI
# UniProt Q96SW2, sequence (whole entry, looked up): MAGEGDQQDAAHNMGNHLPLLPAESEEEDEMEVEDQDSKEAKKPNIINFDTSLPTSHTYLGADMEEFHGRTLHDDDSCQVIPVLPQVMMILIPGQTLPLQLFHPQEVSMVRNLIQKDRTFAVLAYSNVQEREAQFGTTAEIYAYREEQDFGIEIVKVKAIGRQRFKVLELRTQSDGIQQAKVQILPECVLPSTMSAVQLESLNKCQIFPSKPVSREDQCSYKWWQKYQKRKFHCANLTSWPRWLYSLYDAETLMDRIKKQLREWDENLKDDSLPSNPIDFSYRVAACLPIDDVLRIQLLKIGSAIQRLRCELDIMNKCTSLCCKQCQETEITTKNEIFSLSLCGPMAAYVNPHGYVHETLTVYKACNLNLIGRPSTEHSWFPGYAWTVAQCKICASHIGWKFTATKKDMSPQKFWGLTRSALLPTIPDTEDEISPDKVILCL
# UniProt O66465, sequence (whole entry, unmodified, looked up): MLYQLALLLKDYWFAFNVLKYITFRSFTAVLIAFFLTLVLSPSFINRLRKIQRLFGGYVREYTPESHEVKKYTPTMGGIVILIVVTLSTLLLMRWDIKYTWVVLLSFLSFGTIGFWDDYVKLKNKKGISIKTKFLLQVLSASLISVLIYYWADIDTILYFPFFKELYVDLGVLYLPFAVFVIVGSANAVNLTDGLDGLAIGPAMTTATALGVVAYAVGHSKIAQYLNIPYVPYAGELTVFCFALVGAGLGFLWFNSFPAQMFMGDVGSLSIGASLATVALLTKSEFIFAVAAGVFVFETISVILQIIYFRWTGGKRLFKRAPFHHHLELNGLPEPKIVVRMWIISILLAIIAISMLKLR
# UniProt Q16853, sequence (whole entry, looked up): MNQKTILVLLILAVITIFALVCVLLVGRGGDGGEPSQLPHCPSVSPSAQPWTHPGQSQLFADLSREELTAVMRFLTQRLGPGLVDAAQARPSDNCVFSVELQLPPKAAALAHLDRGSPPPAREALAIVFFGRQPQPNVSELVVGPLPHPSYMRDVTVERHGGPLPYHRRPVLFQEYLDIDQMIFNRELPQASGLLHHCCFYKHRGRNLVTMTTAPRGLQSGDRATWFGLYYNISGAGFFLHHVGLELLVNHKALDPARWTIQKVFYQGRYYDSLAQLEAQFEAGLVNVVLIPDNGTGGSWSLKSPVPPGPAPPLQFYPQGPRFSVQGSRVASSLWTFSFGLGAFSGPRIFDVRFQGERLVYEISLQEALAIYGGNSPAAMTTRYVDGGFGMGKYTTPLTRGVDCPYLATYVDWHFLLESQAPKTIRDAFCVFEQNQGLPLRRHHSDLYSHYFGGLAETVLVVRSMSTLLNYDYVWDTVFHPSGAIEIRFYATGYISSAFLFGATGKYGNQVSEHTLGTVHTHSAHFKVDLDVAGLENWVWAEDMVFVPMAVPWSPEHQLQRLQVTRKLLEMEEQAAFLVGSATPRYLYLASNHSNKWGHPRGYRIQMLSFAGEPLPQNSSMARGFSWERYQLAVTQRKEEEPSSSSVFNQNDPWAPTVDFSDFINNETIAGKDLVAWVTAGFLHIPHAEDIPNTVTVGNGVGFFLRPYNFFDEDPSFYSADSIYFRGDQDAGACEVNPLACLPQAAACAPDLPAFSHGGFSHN
# UniProt P28907, sequence (whole entry, looked up): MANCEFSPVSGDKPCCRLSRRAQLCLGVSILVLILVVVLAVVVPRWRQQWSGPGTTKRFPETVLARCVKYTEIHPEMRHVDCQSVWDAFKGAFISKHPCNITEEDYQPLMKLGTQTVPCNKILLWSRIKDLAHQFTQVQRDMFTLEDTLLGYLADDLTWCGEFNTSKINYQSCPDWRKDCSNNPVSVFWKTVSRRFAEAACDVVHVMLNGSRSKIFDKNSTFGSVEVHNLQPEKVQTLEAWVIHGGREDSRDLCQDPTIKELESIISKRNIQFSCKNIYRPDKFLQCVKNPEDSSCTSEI
# UniProt Q13422, sequence (whole entry, looked up): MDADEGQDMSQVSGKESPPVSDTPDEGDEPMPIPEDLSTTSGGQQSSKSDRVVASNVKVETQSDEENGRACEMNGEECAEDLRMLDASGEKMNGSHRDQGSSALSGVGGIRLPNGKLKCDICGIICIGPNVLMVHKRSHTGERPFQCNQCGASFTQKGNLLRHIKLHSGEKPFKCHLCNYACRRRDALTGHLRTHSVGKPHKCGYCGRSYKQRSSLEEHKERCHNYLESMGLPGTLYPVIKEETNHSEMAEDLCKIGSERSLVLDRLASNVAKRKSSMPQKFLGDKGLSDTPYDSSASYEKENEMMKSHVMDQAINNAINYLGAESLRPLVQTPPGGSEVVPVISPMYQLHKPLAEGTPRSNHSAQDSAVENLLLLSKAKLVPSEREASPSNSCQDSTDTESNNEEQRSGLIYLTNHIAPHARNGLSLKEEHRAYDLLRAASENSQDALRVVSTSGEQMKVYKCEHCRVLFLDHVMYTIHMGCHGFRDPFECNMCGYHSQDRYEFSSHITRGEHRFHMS
# UniProt Q920B6, sequence (whole entry, looked up): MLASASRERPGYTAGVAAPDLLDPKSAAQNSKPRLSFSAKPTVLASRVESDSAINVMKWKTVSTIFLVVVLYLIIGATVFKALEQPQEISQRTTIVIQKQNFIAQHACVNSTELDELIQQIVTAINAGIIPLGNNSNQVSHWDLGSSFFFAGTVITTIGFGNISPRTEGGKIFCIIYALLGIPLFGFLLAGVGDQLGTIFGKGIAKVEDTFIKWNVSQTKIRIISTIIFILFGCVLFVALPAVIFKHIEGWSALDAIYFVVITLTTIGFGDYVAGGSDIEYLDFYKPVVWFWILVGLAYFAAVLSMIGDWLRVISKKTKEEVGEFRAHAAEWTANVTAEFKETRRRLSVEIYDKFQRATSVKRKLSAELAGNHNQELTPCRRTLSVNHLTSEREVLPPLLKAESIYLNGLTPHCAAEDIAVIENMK
# UniProt P48729, sequence (whole entry, looked up): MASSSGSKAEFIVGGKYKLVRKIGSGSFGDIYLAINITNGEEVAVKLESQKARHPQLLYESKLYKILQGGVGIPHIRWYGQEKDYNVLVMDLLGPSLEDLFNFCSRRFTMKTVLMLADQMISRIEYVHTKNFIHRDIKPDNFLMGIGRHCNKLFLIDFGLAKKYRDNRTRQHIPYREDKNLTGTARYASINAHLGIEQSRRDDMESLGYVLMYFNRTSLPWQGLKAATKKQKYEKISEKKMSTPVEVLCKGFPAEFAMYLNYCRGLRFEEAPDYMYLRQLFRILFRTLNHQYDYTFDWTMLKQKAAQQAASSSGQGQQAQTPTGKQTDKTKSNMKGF
# UniProt P61073, sequence (whole entry, looked up): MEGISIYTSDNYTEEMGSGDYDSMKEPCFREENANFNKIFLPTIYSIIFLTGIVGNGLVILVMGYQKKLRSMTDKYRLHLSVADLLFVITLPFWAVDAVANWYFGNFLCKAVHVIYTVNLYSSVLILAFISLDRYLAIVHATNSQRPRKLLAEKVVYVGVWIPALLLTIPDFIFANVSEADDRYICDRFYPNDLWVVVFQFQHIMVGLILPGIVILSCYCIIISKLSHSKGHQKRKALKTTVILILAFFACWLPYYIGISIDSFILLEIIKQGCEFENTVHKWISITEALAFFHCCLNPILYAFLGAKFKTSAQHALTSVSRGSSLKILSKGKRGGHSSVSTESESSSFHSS
# UniProt Q9NZC7, sequence (whole entry, unmodified, looked up): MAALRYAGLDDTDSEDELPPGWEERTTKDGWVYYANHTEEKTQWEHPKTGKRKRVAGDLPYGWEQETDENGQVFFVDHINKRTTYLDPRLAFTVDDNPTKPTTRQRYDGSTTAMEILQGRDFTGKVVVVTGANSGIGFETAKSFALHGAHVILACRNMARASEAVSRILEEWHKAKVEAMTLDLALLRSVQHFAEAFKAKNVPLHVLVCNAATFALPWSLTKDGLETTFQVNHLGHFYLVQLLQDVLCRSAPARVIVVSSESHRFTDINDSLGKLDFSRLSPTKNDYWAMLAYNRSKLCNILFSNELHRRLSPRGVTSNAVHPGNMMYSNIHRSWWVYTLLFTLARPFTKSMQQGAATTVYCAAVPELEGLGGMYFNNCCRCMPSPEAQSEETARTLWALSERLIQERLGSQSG
Compound,target,test,system,conditions,how to read,endpoint,value
CC(=O)NCCN(CC(=O)NCCN(CC(=O)NCCN(CC(=O)NCCC(N)=O)C(=O)[C@@H](N)CCCCN)C(=O)[C@@H](N)Cc1ccccc1)C(=O)[C@@H](N)Cc1ccccc1,HIV-1 TAR RNA,,,extrapolated to 1 M KCl,,non-electrostatic ΔG°,-7.266 ± 0.0239 kcal/mol
CCCCCC[N+](CCCCCC)(CCCCCC)CCCCCC,"Kcnk2 (Rattus norvegicus, UniProt Q920B6)","ion current, blocker, inside-out patch clamp",,5 µM,,unblocking time constant,168 ± 17 ms
NC/C(=C\F)COc1ccc(Cl)c(-c2cc(=O)[nH]c(=S)n2CC(N)=O)c1,"AOC3 (Homo sapiens, UniProt Q16853)","enzyme activity, Amplex Red H2O2",,,relative to: PXS-4728 over compound,potency ratio,> 1000 fold
CC(C)(C)OC(=O)NCCNC(=O)CCNc1ncccn1,"CXCR4 (Homo sapiens, UniProt P61073)","arrestin recruitment, DiscoverX",,,,IC50,inactive
CC(C)CC(NC(=O)C(NC(=O)NC(C(=O)O)C(C)C)C1CCNC(=N)N1)C(=O)NCCCNC(C(=O)O)C(OC1OC(CN)C(O)C1O)C1OC(n2ccc(=O)[nH]c2=O)C(O)C1O (centres unmarked),"mraY (Aquifex aeolicus, UniProt O66465, T75A)",ITC,,"concentration not given, T75A mutant",,binding stoichiometry,0.71 ± 0.01 sites
O=C1CCC(N2C(=O)c3cccc(NCC(=O)N4CCN(c5ccc(Nc6nccc(Oc7ccccc7)n6)cc5)CC4)c3C2=O)C(=O)N1 (centres unmarked),"Cereblon/Ikaros (Homo sapiens, UniProt Q13422+Q96SW2)","degrader, TMT quantitative proteomics",Mino,"200 nM, 4 h",,degradation,~50%
N=C(N)NCCC[C@H](NC(=O)[C@H](Cc1ccccc1)NC(=O)[C@@H](N)CO)C(=O)N[C@@H](CC(N)=O)C(N)=O,"NPSR1 (Homo sapiens, UniProt Q6W5P4, N107I)",agonist,CHO-Galpha16,,relative to: calcium over cAMP,bias factor,7.85 and ~8
CC1=CC(C)(C)N=C(Nc2nc(-c3ccccc3)c3ccccc3n2)N1,"CD38 (Homo sapiens, UniProt P28907)","hydrolase activity, fluorometric",,"50 µM, with: ε-NAD+ substrate",relative to: untreated,remaining activity,48.5 ± 2.3%
CC(C)C[C@H](NC(=O)[C@@H](NC(=O)[C@@H](NC(=O)CN)[C@@H](C)O)C(C)C)C(=O)N1CCC[C@H]1C(=O)N1CCC[C@H]1C(=O)N1CCC[C@H]1C(=O)N1CCC[C@H]1C(=O)N[C@@H](Cc1ccc(O)cc1)C(=O)N[C@@H](CCCNC(=N)N)C(=O)N[C@@H](Cc1c[nH]cn1)C(=O)N[C@@H](CCCNC(=N)N)C(=O)N[C@@H](CC(N)=O)C(=O)O,"WW domain-containing oxidoreductase, WW1 domain (WWOX, Homo sapiens, UniProt Q9NZC7)","binding, isothermal titration calorimetry",,"pH 7.8, 20 °C, isolated WW1 domain",,ΔH,-23 ± 1.2 kcal/mol
CC(=O)NCCN(CC(=O)NCCN(CC(=O)NCCN(CC(=O)NCCC(N)=O)C(=O)C[C@@H](N)CCCNC(=N)N)C(=O)C[C@@H](N)Cc1ccccc1)C(=O)C[C@@H](N)Cc1ccccc1,HIV-1 TAR RNA,,,,,non-electrostatic TΔS°,1 ± 0.263 kcal/mol
O=C1CC[C@H](N2Cc3cc(-c4cnn5ccc(NCCc6ccccc6)nc45)ccc3C2=O)C(=O)N1,"Cereblon/Casein kinase I alpha (CSNK1A1/CRBN, Homo sapiens, UniProt P48729+Q96SW2)","protein level, degrader, luciferase",MOLT-4,,,Dmax,0%

# A few entries again:
Compound,target,test,system,conditions,how to read,endpoint,value
CC(=O)NCCN(CC(=O)NCCN(CC(=O)NCCN(CC(=O)NCCC(N)=O)C(=O)C[C@@H](N)CCCNC(=N)N)C(=O)C[C@@H](N)Cc1ccccc1)C(=O)C[C@@H](N)Cc1ccccc1,HIV-1 TAR RNA,,,,,non-electrostatic TΔS°,1 ± 0.263 kcal/mol
